Experimental data gathered from unrelated publications.
Every numbered part comes from another study and shows a few of its results, in no order. Changes are numbered by the printed parent chain.

Block 1
Target: Histone acetyltransferase KAT6A, winged helix 1, GST fusion (KAT6A, Homo sapiens, UniProt Q92794, residues 1-85)
Technique: protein binding microarray
Molecule type: double-stranded DNA, one strand shown
Matrix: in vitro
Concentration: not given
Notes: 8-mer, flanks averaged, mean of 2 arrays, mostly near background
Baseline: not given
Reading: higher = stronger binding
Construct (chain): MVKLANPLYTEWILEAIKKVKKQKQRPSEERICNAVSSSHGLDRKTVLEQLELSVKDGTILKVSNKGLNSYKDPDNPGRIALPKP
| Strand | E-score |
| --- | --- |
| ATAGCGCA | 0.197 |
| ATATACAA | -0.124 |
| GCGGAAGC | 0.325 |
| GCCTCTCA | -0.236 |
| GCGTGGGA | 0.134 |
| AGGTATCG | 0.0675 |
| TAAACGAA | -0.0547 |
| AATCGTCT | 0.0211 |
| ACTCAGTA | 0.00502 |
| GAACGAAC | 0.0571 |
| GTAGAGAC | -0.162 |
| CGTCCTTC | 0.0355 |
| ACTCGTGG | -0.165 |
| AAATGCCA | -0.177 |
| CTATAATA | -0.0741 |
| CCGGGACC | 0.354 |
| CGCGAGGA | 0.213 |
| ATGCAGAG | -0.211 |
| GAAGTGCA | -0.0226 |
| ATGGAGTA | -0.0712 |
| AACGTCCC | -0.0722 |
| TACGCCTA | -0.00466 |
| TCACGTGA | -0.108 |
| CCATACCA | -0.154 |
| CCAGTATC | -0.165 |

Block 2
Target: RNA binding protein fox-1 homolog 2, RRM domain, GST-SBP tag (RBFOX2, Homo sapiens, UniProt O43251-10, residues 100-194)
Technique: RNA Bind-n-Seq
Molecule type: RNA
Matrix: in vitro
Concentration: 365 nM
Notes: natural RNA segment, single round, ends assumed
Baseline: no-protein control
Reading: higher = stronger binding
All sequences stand within: GGGAGUUCUACAGUCCGACGAUC … UGGAAUUCUCGGGUGCCAA
Residues (chain): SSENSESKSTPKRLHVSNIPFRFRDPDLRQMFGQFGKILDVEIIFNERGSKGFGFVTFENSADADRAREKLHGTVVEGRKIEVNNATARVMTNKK
| Strand | RBNS enrichment (R) |
| --- | --- |
| AACCAGAAUUCACAAAGUCCUAUGCAACCCUAGACAGGAGGAGGUUAGAGAGUCUGUCUUGAUUUGUGGUUUCAGAGACCCUAGAGAAAUUUGUACCAGUUUGUAUUAAA | 1.42 |
| AUGUUUACUUUUAUAUCCCUAGCACAAAGCAAGUGCCUGGCACAUAGUCAGUGCCCUAAGUAUUCGUAGAGUGAAGAAUGCCAGCCUCUCUUGUCCCUGGUUUCCUUAUG | 0.323 |
| GUUUUAAUGUGGUGAGCAGCCUAAGAACUUAAAGGUGUACGGUAUUUUGUUUAUAAAGAUGUUCAGAUUUCUUAGUAACUGUAUUAAAUGGUUAAUUAAAACUGUGAAUU | 0.863 |
| CUGUGCUUUAUAAACUAUAUUAGAGGGACUGGGUUUAAAAAAAAAGAUAUAGGGUAGAAAUAAGAGCUAUACUUACAAGAGUCAAUAGAUCACUGACUUCUCUUUAACUG | 0.425 |
| UUUGAAGUAUUAGAACAAAGUGUGCCAUGAGAGAAAAACUUAACAAGGAGUUUUGAAAAGAAAUGCAAAGAACAAAACUACAACACUAUUUUUUAAAAAGUUGAGUAUCU | 1.32 |
| CUACACUGACCCAGAGGCAUAGGAAGGCUUGCUGUCUGCCCUGCACCACCCACAGAGCUGCGGCACCCAUAGCAGCUGGGCCUGAGCCUGAGCACUAGCCGGAGUCUGGG | 0.361 |
| UCUGGAGGCCAACAAGUCCCACGAUCGGCUGUCUGCGAUUGGGAGACCAGGAGAAGCCACACCGUAACUCAGUCUGAGUCCAAAGCCCGAGAAGCCAGGGGCCACCCUGU | 0.195 |
| CUUCCAUGCCGGAACCCAGGCCAGGGACCCACCGGCCUGUGGUUUGUGGGAAAGCAGGGUGGACGCUGAGGAGUGAAAGAACCCUGCACCCAGAGGGCCUGCCUGGUGCC | 0.279 |
| AACUUAAAGGAUAAUAAAAUUUUUAAAGAAAAGAUAUUCUAAUGUACUCUCAAUAAUUCUACAGAAAUAAAACUGUAAAGUGCAAUGUGAAAUCAAAGAUUAUAGUCAUU | 0.574 |
| UCUGCUAUCCCCAUGGCCAUGAAGGCUCCCUACCCCCAGAUGCCCACUCUCUCCACCUUUAUUUGCUUCUGAGUUCUUGUUUUUGAGCAAUAAACAGAAAGUCACCACUU | 0.69 |
| AAGUCAUUGUGACUAACACUUCAGUUCAUUGGCCCAUGAUCAUUUCAGAUUUUAACAGCUGUUACUGUUAUUGGAGAUCGGAGAGUUGGCCUGUUAGAAAUUAAAAAAUA | 0.298 |
| CUGUGGCUGCAAGGCGGUCAGUUGCUGCUUGUCCCAGCAGGUGGCCUUGAUCUCUCCAUGCCCCACCUUAAGUGGUAAGCAUGUUUAAUUAUCAAAGGCCCCAUUUGUCA | 0.393 |

Block 3
Target: NFE2, bZIP domain (human)
Technique: DHFR protein complementation
Matrix: yeast
Notes: single substitutions, most at no-binding floor
Baseline: wild-type JUN-FOS pair
Reading: higher = stronger binding
Parent: JUN, bZIP domain (human); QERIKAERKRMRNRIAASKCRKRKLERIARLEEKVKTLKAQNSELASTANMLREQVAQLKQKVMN; partner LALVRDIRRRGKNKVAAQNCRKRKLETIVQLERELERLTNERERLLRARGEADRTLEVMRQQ
| Substitution | binding fitness |
| --- | --- |
| L31V | -1.45 natural log |
| A40P | -1.52 natural log |
| Q55W | -1.46 natural log |
| A40V | -1.54 natural log |
| Q41C | -1.5 natural log |
| T48R | -1.47 natural log |
| L45H | -1.51 natural log |
| S47R | -1.39 natural log |
| L45M | -1.29 natural log |
| A29C | -1.47 natural log |
| A49Q | -1.48 natural log |
| L31D | -1.38 natural log |
| R53C | -1.54 natural log |
| A57L | -1.5 natural log |
| R53Y | -1.4 natural log |
| T37I | -1.45 natural log |
| E54D | -1.52 natural log |
| L38E | -1.42 natural log |
| A46Y | -1.27 natural log |
| A57N | -1.49 natural log |

Block 4
Target: Fragile X messenger ribonucleoprotein 1, C-terminal low-complexity region (Fmr1, Mus musculus, UniProt P35922)
Technique: RNA Bind-n-Seq
Molecule type: RNA
Matrix: in vitro
Concentration: 200 nM
Notes: whole 134-nt RNA, ends assumed
Together with: 150 mM LiCl
Baseline: input library
Reading: higher = stronger binding
Each molecule: 7-deaza-guanosine replaces G
All sequences stand within: GGGAGUUCUACAGUCCGACGAUC … UGGAAUUCUCGGGUGUCAAGG
| Strand | log2 enrichment |
| --- | --- |
| UCCUCAAGUCCUGUGCUACACAUCGUAUGUACCGAAUCGGGCGGCGGGGCGGAAAGUAUUAUGUUACGCCGUUCGGAUCUGCACUUCCAG | -0.302 |
| CCUCAAGUCCUGUGCUACACAUCGUAUGUACCGAAUCGGCCGGGCCGGCCGGGAAAGUAUUAUGUUACGCCGUUCGGAUCUGCACUUCCA | 0.121 |
| UGGGAGGUGGAUUUUGUUUAUUUUUUUAGCUCAUUUCCAGGGGUGGGAAUUUUUUUUUAAUAUGUGUAAUGAAUAAAGUUGUUUUUGAAA | -0.023 |
| UCCUGUGCUACACAUCGUAUGUACCGAAUCGGGGUUUUUGGGGUGGGGUUUUUUUGGGGAAAGUAUUAUGUUACGCCGUUCGGAUCUGCA | -1.46 |
| CUCAAGUCCUGUGCUACACAUCGUAUGUACCGAAUCGGAAAGGUUUGGUUUGGAAAGUAUUAUGUUACGCCGUUCGGAUCUGCACUUCCA | -0.575 |
| CCUGUGCUACACAUCGUAUGUACCGAAUCGGGAAAAAAAGGAAAAAAAGGGAAAAAAAGGAAAGUAUUAUGUUACGCCGUUCGGAUCUGC | -0.181 |
| GUCCUGUGCUACACAUCGUAUGUACCGAAUCGGGAAAAAGGGAAAAAGGGGAAAAAGGAAAGUAUUAUGUUACGCCGUUCGGAUCUGCAC | 0.28 |
| UCCUCAAGUCCUGUGCUACACAUCGUAUGUACCGAAUCGGGCGGGGCGGCGGAAAGUAUUAUGUUACGCCGUUCGGAUCUGCACUUCCAG | 0.477 |
| UGGGAGGUGGAUUUUGUUUAUUUUUUUAGCUCAUUUCCAGGGGUGGGAAUUUUUUUUUAAUAUGUGUCAUGAAUAAAGUUGUAUUUGAAA | 0.262 |
| UGGGAGGUGGAUUUUGUUUAUUUUUUUAGCUCAUUUCCACGGGUGGGAAUUUUUUUUUAAUAUGUGUCAUGAAUAAAGUUGUUUUUGAAA | 0.681 |
| AGUCCUGUGCUACACAUCGUAUGUACCGAAUCGGGGAAAAAGGGGAAAGGGGUGGGGAAAGUAUUAUGUUACGCCGUUCGGAUCUGCACU | -0.392 |

Block 5
Target: Protein max, full length (MAX, Homo sapiens, UniProt P61244-2, residues 1-151)
Technique: protein-binding microarray
Molecule type: double-stranded DNA, one strand shown
Matrix: in vitro
Concentration: not given
Notes: k-mer, scored over probes, only values ≥0.25
Reading: higher = stronger binding
| Strand | E-score |
| --- | --- |
| CATGGTAC | 0.373 |
| TGCTGCAA | 0.258 |
| AGCGTGGC | 0.437 |
| AACGTGGT | 0.434 |
| CACATGTG | 0.481 |
| ACAGGTGC | 0.309 |
| ATGAGCAT | 0.287 |
| AATAACAC | 0.28 |
| CGGTGCGC | 0.252 |
| AATGGCAC | 0.267 |
| AAGACACG | 0.344 |
| ATGAGGGC | 0.308 |
| AGCACGAT | 0.275 |
| AATGTGAT | 0.278 |
| CGGGGCAC | 0.281 |
| AGCACATG | 0.485 |
| ACGAGGAG | 0.358 |
| AATGCACG | 0.362 |
| ACATGGCG | 0.418 |
| CATGCCCA | 0.345 |

Block 6
Target: RING finger protein unkempt homolog, zinc fingers 1-6, GST-SBP tag (UNK, Homo sapiens, UniProt Q9C0B0, residues 30-357)
Sequence of UniProt Q9C0B0 (30-357, looked up): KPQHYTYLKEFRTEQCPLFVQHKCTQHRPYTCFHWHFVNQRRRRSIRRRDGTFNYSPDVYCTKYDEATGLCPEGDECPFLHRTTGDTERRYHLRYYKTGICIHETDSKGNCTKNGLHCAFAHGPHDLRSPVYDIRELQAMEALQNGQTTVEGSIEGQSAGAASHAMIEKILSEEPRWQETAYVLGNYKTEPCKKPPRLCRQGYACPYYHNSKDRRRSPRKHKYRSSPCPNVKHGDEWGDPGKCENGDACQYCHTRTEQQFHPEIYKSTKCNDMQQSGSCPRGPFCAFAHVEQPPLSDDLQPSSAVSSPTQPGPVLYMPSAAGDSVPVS
Technique: RNA Bind-n-Seq
Molecule type: RNA
Matrix: in vitro
Concentration: not given
Notes: RNA with constant flanks, human-mouse chimeric sites, ends assumed
Baseline: input RNA pool
Reading: higher = stronger binding
All sequences stand within: GGGAGUUCUACAGUCCGACGAUC … CAACAGAGGAUUGAGCAUCA
| Strand | bound/input enrichment |
| --- | --- |
| CGCUGGCGUUGAACUGUGGACUCUGAUGGCCUCCAUCUCUCAGGCACGUGUGCCUUCUCUUAGUCCCUGUUUUCGGGAUGUUAUGAACAGUAUCAUGGUGGUUUGAAAGCACCAGCUUUG | 0.104 ratio |
| UCUGGUCACACUCGUGUAUAUGGUGUGUGCUUUGUGGACACUUCACUGGGCAAGUUUUUCAUAGGUCAGUUUUCGGAUGACCGCCACUGUUCCAGAUUUAGGACGCUAGUGGCUCACUAU | 0.273 ratio |
| UAAAUUAGGGCUGCCGUUUUCUGUUUCUCCCUGGGCUGCGGAAAGCCAGGCGGUUUUAUCUAGCUUAUACAAGGCUGCUGGUGUUCCCUCUUUUUUUCCACGAGGGUUUUUUUUCCAGCA | 1.24 ratio |
| GUUGCCAGCUUCCGGUUGGCCUCCAUCCGGUUCUCUCCUGAGCUACGUGUCUCUACGCUCUCAAUCCGCCAUCCAACGGCAGUCAUGCAGGUAAUGCAGUUUGUGGAGCCCAGCCGGCAG | 0.0799 ratio |
| GCUCUUGGGAAUGUAAUAAGUGCCUUGGGGGACAAGAGCAAGAGAGCCACCCAUGUCCCUUACAGAGACUCUAAGCUGACAAGACUCUUGCAGGAUUCCCUCGGGGGUAACAGCCAAACC | 0.155 ratio |
| GGGACUGAUUCAUCCCAAGGACAGGCCACCCCAUUUGAUGCCUGGACUGACGACAGUAUGUUAGGGCCUAGUCAAAAUGUUGAAGCUGAGUCAAUUCAGGAUGCCAUGAGUAUGGAAGAG | 0.46 ratio |
| CCUCUGCCCCGCUCUGCAGCCUGGGGACACUGGGCUGGGACCAGAAUCCAGCUUUCUUUUAAAACUCUCAGUGUAACUGUAUCCCGUGACAUUUCAUUUUUUUUUUAUAGUGUAUUUUUU | 16 ratio |
| AAAGAGAAACUAAAGCAACUAAUAGAGAAGAGGAUUGGCAAAGAGAAUUUCAUAGAGAAACUAGGAUUUAUUAGCAAACAUGAGUUAGUAUUCCAGACGUCUCAGAAACCCCAGCCAAAC | 3.18 ratio |
| GGAAUUGCUGAUUCAAGUAAGUUUGAGUAUCACAAUGUUAGCUUUCUAAUUCCAUAAAAGUACUUGGUACAGUUUCUUUAUAAUCUGACAUCACCCCAGCGCCAUUUGUAAAGAGCAACU | 0.855 ratio |
| GUUCGGCUCUGGGAUCAUGCUACUAUGACAGAAGUGAAAUCUCUGAAUUUUAAUAUGUCUGUUAGCAGCAUGGAGUAUAUUCCUGAAGGAGAGAUUUUGGUUAUUACUUAUGGACGAUCU | 0.318 ratio |
| ACUCUUGACUCUUUCCAUUCUCGUCCCUUCCCUCUUGAUAUUCAAGGCCAUGAAUCCCAAAAUAACAAUCUAUCUUACUAGCACCCAAACAGAGGUGGAAUAAAUCCACCCCAGUGUCUC | 0.851 ratio |
